Assay results of several laboratories.
Each line is one published result; not all experiments were run side by side. “And” joins repeats or separate records; there may be more than shown. ± gives the spread as reported.

| SMILES | assay | system | conditions | scale | endpoint | result |
| --- | --- | --- | --- | --- | --- | --- |
| CC(C)C[C@H](NC(=O)[C@H](CCCCN)NC(=O)OCC1c2ccccc2-c2ccccc21)C(=O)N[C@H](C(=O)N[C@@H](Cc1ccccc1)C(=O)N[C@@H](Cc1ccccc1)C(=O)N[C@@H](CCCCN)C(=O)NCC(=O)N[C@@H](Cc1ccccc1)C(=O)N[C@@H](C)C(=O)N[C@@H](Cc1c[nH]c2ccccc12)C(=O)N[C@@H](CC(N)=O)C(=O)N[C@H](C(=O)N[C@H]1CSSC[C@@H](C(=O)N[C@@H](Cc2c[nH]cn2)C(=O)N[C@@H](CCCNC(=N)N)C(=O)N[C@@H](CCCNC(=N)N)C(=O)N[C@@H](C)C(=O)N[C@@H](CC(N)=O)C(N)=O)NC(=O)[C@H](C(C)C)NC(=O)[C@H](CCCNC(=N)N)NC(=O)[C@H](C(C)C)NC(=O)CNC(=O)[C@H](CC(N)=O)NC(=O)[C@H](CCCNC(=N)N)NC(=O)[C@H](Cc2ccc(O)cc2)NC(=O)[C@H](C(C)C)NC1=O)C(C)C)C(C)C |  | ICR mice, serum | intraductal mammary, 10 mg/kg, day 5 |  | total protein | 53.8 ± 1.77 g/L |
| CCN(CC)CCCC(C)Nc1ccnc2cc(Cl)ccc12 (stereo not drawn) |  | female SCID mice | sc, 50 mg/kg daily, day 14 | direction not given | total severity score | 0 |
| Nc1ncnc2c1ncn2[C@@H]1O[C@@H]2COP(=O)([S-])O[C@@H]3[C@H](O)[C@@H](COP([O-])(=S)O[C@H]2[C@H]1O)O[C@H]3n1cnc2c(N)ncnc21.[Na+].[Na+] (stereo partly drawn) |  | non-tumor-bearing mice, serum | intravenous, 1 mg/kg, toxicity study |  | total bilirubin | 2.84 ± 0.52 µmol/L |
| CC(C)[C@@H]1CC[C@@H](C)C[C@@H]1O | acute oral toxicity OECD | Swiss albino mice, serum | oral, 300 mg/kg |  | total bilirubin | 0.58 ± 0.02 mg/dL |
| C/C=C1/CN2CC[C@]34C(=C(C(=O)OC)[C@H]1C[C@H]23)Nc1ccc(Br)cc14 | novelty-induced hyperlocomotion | CD-1 mice | subcutaneous, 10 mg/kg, 0 to 30 min cumulative, horizontal and stereotypic activity |  | total distance | decreased |
| CN1CCN(S(=O)(=O)c2cc([N+](=O)[O-])ccc2N(CCOS(C)(=O)=O)CCOS(C)(=O)=O)CC1 |  | naive NOD/SCID mice, pooled blood | intraperitoneal, 18.8 mg/kg, week 4 |  | total protein | 59 g/L |
| CC(C)[C@@H]1NC(=O)CNC(=O)[C@H](CC(N)=O)NC(=O)[C@H](CCCNC(=N)N)NC(=O)[C@H](Cc2ccc(O)cc2)NC(=O)[C@H](C(C)C)NC(=O)[C@@H](NC(=O)[C@@H](NC(=O)[C@H](CC(N)=O)NC(=O)[C@H](Cc2c[nH]c3ccccc23)NC(=O)[C@H](C)NC(=O)[C@H](Cc2ccccc2)NC(=O)CN)C(C)C)CSSC[C@@H](C(=O)N[C@@H](Cc2cnc[nH]2)C(=O)N[C@@H](CCCNC(=N)N)C(=O)N[C@@H](CCCNC(=N)N)C(=O)N[C@@H](C)C(=O)N[C@@H](CC(N)=O)C(N)=O)NC(=O)[C@H](C(C)C)NC(=O)[C@H](CCCNC(=N)N)NC1=O |  | ICR mice, serum | intraductal mammary, 10 mg/kg, day 5 |  | total protein | 51.9 ± 1.14 g/L |
| COc1cccc(Oc2ccccc2NC(=O)CNC(=O)c2cccc3ccccc23)c1 |  | esterase-deficient SCID mice, male | oral, 15 mg/kg/day, 14 days, toxicity study |  | total protein | 50 g/L and 52 g/L and 53 g/L |
| C[C@H]1COCCN1c1nc(NCc2cccnc2C(F)(F)F)c2cccnc2n1 |  | BALB/c mice | intravenous, 5 mg/kg |  | total clearance | 7.78 mL/min/kg |

Excerpt of the above:
| SMILES | assay | system | conditions | scale | endpoint | result |
| --- | --- | --- | --- | --- | --- | --- |
| Nc1ncnc2c1ncn2[C@@H]1O[C@@H]2COP(=O)([S-])O[C@@H]3[C@H](O)[C@@H](COP([O-])(=S)O[C@H]2[C@H]1O)O[C@H]3n1cnc2c(N)ncnc21.[Na+].[Na+] (stereo partly drawn) |  | non-tumor-bearing mice, serum | intravenous, 1 mg/kg, toxicity study |  | total bilirubin | 2.84 ± 0.52 µmol/L |
